Results of several laboratories.
Each line is one published result; not all experiments were run side by side. ± gives the spread as reported.

| Compound | tested on | test | system | conditions | scale | endpoint | value |
| --- | --- | --- | --- | --- | --- | --- | --- |
| CC(C)C12OC1C1OC13C1(C)CCC4=C(COC4=O)C1CC1OC13C2OC(=O)CCC(=O)OC1OC(CO)C(O)C(O)C1O (stereo not drawn) | BXPC-3 | cell growth or viability, XTT |  | 47 h |  | IC50 | 4.15 µM |
| CC(C)(C)C(=O)OCOP(=O)(OCOC(=O)C(C)(C)C)C1CCCN(O)C1=O (stereo not drawn) | SK-MEL-2 |  |  |  |  | log GI50 | -5.81 log M |
| O=C(C[Se]C(=O)c1cccs1)Nc1cccc(C(F)(F)F)c1 | NCI60 NSCLC subpanel mean | cell growth |  |  |  | TGI | 3.09 µM |
| CCOC(=O)C1(Cc2ccccc2)Oc2cc(F)ccc2N(Cc2ccccc2)C1=O (stereo not drawn) | HaCaT | cell growth or viability, CCK-8 |  | 25 µM, 72 h |  | inhibition | 0.25% |
| CC(C)[C@H](NC(=O)[C@H](CCCNC(=N)N)NC(=O)[C@@H]1CCCN1C(=O)[C@@H](NC(=O)[C@H](C)NC(=O)[C@H](Cc1ccc(O)cc1)NC(=O)[C@H](CCC(N)=O)NC(=O)[C@H](CCCCN)NC(=O)[C@H](CCCNC(=N)N)NC(=O)[C@@H]1CCCN1C(=O)[C@H](CCC(=O)O)NC(=O)[C@@H](NC(=O)[C@H](C)N)[C@@H](C)O)[C@@H](C)O)C(=O)N[C@@H](Cc1ccccc1)C(=O)N[C@@H](Cc1c[nH]c2ccccc12)C(=O)N[C@H](C(=O)N[C@@H](CC(=O)O)C(=O)N[C@@H](C)C(=O)N1CCC[C@H]1C(=O)NCC(=O)NCCOCCOCCOCCOCCOCCOCCOCCOCCOCCOCCOCCOCCC(=O)N[C@@H](CS)C(N)=O)[C@@H](C)O | H2009 | phage binding |  | 10 min, 37 °C | baseline: control phage | selectivity ratio | 68 ± 21 |
| CNC(=S)N/N=C/c1ccc(OCc2ccccc2)cc1 | IMR-32 | measured: GPX3 |  | 500 µg/mL, 24 h | higher = more activity | glutathione peroxidase activity (OD450) | 0.148 a.u. |
| O=C(O)c1ccc(-c2nc(-c3ccccc3Cl)c3sccn23)cc1 | MOLT-4 | CellROX Red |  | 0.1 mM, 48 h |  | ROS level | 4890 RFU |
| O=C1NC2(CC2)COc2ncc(F)cc2[C@H]2COCCN2c2ccn3ncc1c3n2 |  |  | Sprague-Dawley rat, male, kidneys | oral, 2.5 mg/kg/day, 4 weeks, end of treatment |  | organ-to-body weight ratio | 0.725 ± 0.057% |
| C#CCN1C(=O)C(CC#C)(C(=O)OCC)Oc2ccccc21 (stereo not drawn) | HaCaT | cell growth or viability, CCK-8 |  | 12.5 µM, 72 h |  | inhibition | 0.65% |
| O=C1C(Cl)=C(Cl)C(=O)c2ccccc21 | HuCC-A1 | MTT |  |  | baseline: IC50 MRC-5 over IC50 HuCC-A1 | selectivity index | 3.31 |
| CSCC[C@H](NC(=O)[C@@H](NC(=O)[C@H](CCC(N)=O)NC(=O)[C@H](CO)NC(=O)[C@@H](N)C(C)C)[C@@H](C)O)C(=O)N[C@@H](CCCNC(=N)N)C(=O)N[C@@H](CCC(N)=O)C(=O)N[C@H](C(=O)N[C@@H](C)C(=O)N[C@H](C(=O)N1CCC[C@H]1C(=O)N[C@@H](CC(C)C)C(=O)N[C@@H](CC(C)C)C(=O)N[C@@H](Cc1c[nH]c2ccccc12)C(=O)N[C@@H](Cc1ccccc1)C(=O)N[C@@H](Cc1c[nH]c2ccccc12)C(=O)N[C@H](C(=O)NCC(=O)N[C@@H](CO)C(=O)N[C@@H](CC(C)C)C(=O)NCCOCCOCCOCCOCCOCCOCCOCCOCCOCCOCCOCCOCCC(=O)N[C@@H](CS)C(N)=O)[C@@H](C)O)C(C)C)[C@@H](C)O | H1819 | phage binding |  | 10 min, 37 °C | baseline: control phage | selectivity ratio | 0.97 ± 0.53 |
| Cc1cc(Oc2nc(N3CC[C@@H](c4ccncc4)C3)ncc2F)[nH]n1 | IGROV-1 | cell proliferation |  |  |  | IC50 | 45.7 µM |

Some of these lines once more:
| Compound | tested on | test | system | conditions | scale | endpoint | value |
| --- | --- | --- | --- | --- | --- | --- | --- |
| Cc1cc(Oc2nc(N3CC[C@@H](c4ccncc4)C3)ncc2F)[nH]n1 | IGROV-1 | cell proliferation |  |  |  | IC50 | 45.7 µM |
| CC(C)C12OC1C1OC13C1(C)CCC4=C(COC4=O)C1CC1OC13C2OC(=O)CCC(=O)OC1OC(CO)C(O)C(O)C1O (stereo not drawn) | BXPC-3 | cell growth or viability, XTT |  | 47 h |  | IC50 | 4.15 µM |
